Measured values of several laboratories.
Compare with care: the assays were run in different laboratories. Numbers after ± are the reported error.
Sequence of UniProt P08684 (whole entry, unmodified, looked up): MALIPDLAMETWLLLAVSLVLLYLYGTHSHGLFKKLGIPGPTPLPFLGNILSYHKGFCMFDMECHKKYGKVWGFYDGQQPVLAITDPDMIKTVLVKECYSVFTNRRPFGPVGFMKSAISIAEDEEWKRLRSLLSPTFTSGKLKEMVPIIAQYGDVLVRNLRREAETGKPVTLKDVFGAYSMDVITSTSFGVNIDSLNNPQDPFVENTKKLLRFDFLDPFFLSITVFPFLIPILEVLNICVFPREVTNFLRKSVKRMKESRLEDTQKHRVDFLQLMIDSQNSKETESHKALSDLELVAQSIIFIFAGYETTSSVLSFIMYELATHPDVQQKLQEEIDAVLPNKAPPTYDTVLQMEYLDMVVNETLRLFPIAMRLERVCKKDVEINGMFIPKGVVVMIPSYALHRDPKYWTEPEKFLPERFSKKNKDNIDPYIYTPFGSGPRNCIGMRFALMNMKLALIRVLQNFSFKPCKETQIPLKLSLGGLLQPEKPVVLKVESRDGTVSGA

`COc1ccc2cc(NC(=O)c3cc(-c4cccnc4)nc4ccccc34)ccc2c1` — result for “koff slow phase”: 0.0053 s⁻¹ (Cytochrome P450 3A4 (CYP3A4, Homo sapiens, UniProt P08684, S18F); binding, surface plasmon resonance; 10 °C).
For `[99Tc+].[C-]#[N+]CC(C)(C)OC.[C-]#[N+]CC(C)(C)OC.[C-]#[N+]CC(C)(C)OC.[C-]#[N+]CC(C)(C)OC.[C-]#[N+]CC(C)(C)OC.[C-]#[N+]CC(C)(C)OC`, “canalicular efflux fraction” read 36.8% (rat sandwich-cultured hepatocytes; reference: total efflux).
For `NC(=O)CCCn1c2ccc([N+](=O)[O-])cc2c(=O)n1Cc1ccccc1`, the selectivity index was 2 (Leishmania amazonensis; mouse peritoneal macrophages; intracellular amastigotes; reference: CC50 macrophages over IC50 amastigotes).
`N#C[C@@H]1CCCN1C(=O)CNC(=O)c1ccnc2ccc(OCCCN3CCN(C(=O)CCc4ccc5c(c4)CN4CCN6CC(=O)[O][68Ga-]([O]C(=O)C4)([O]5)[O]c4ccc(CCC(=O)N5CCN(CCCOc7ccc8nccc(C(=O)NCC(=O)N9CCC[C@H]9C#N)c8c7)CC5)cc4C6)CC3)cc12` gave a tracer uptake of 34.3 %ID/g (U-87 MG tumour model; host not given, tumour; 1 h, tumour-bearing).
With `[64Cu+2].c1ccc(CNCc2ccc(CN3CCCN4CCNCCCN(CC4)CC3)cc2)nc1` the tissue uptake was 1.64 ± 0.28 %ID/g (CXCR4; NOD/SCID mouse, U87 and U87-stb-CXCR4 xenografts, blood; iv, 240 min, ex vivo).
`O=c1c2cc([N+](=O)[O-])ccc2n(CCO)n1Cc1ccccc1` gave a selectivity index of 2 (Leishmania amazonensis; mouse peritoneal macrophages; intracellular amastigotes; reference: CC50 macrophages over IC50 amastigotes).
For `CCOC(=O)CN1CCN(CC(=O)OCC)CCN(Cc2cc(-c3nc4ccccc4s3)cc(OC)c2O)CC1`, the pCu was 9.6 (copper(II) ion; metal chelation, spectrophotometric titration; aqueous solution; 50 µM, pH 6.6, with: Cu(II) 50 µM; higher = stronger binding).
`COc1ccc(CNc2nc(N3CCC[C@H]3CO)ncc2C(=O)NNC(=O)c2cnc(N3CCC[C@H]3CO)nc2NCc2ccc(OC)c(Cl)c2)cc1Cl` — result for toxicity: “toxic” (Salmonella typhimurium; Ames test; TA98, TA100, TA1535, TA102, TA97a; 5000, 2500, 1600 µg/plate, preliminary test).
Under “subjects with TEAE”, `Cn1c(=O)oc2ccc(-c3ccc(CC(C#N)NC(=O)C4CNCCCO4)c(F)c3)cc21` (stereo not drawn) is recorded as 0% (measured: anaemia; human; 15 mg single dose, fasted).
With `COC(=O)CCn1c2ccc([N+](=O)[O-])cc2c(=O)n1Cc1ccccc1` the selectivity index was 12 (Leishmania amazonensis; promastigotes, MHOM/BR/77/LTB0016; reference: CC50 macrophages over IC50 promastigotes).
`[64Cu+2].c1cnc(CNCc2ccc(CN3CCCN4CCNCCCN(CC4)CC3)cc2)nc1` has a tissue uptake of 0.27 ± 0.12 %ID/g (CXCR4; NOD/SCID mouse, U87 and U87-stb-CXCR4 xenografts, muscle; iv, 90 min, ex vivo, with: AMD3465 25 mg/kg sc before tracer).
`CCCCn1c2ccc([N+](=O)[O-])cc2c(=O)n1Cc1ccccc1` gave a selectivity index of 9 (Leishmania amazonensis; promastigotes, MHOM/BR/77/LTB0016; reference: CC50 macrophages over IC50 promastigotes).
The tracer uptake of `O=C(CCCCC[N+]#[C][99Tc-5]([C]#[N+]CCCCCC(=O)N[C@H]1C(O)O[C@H](CO)[C@@H](O)[C@@H]1O)([C]#[N+]CCCCCC(=O)N[C@H]1C(O)O[C@H](CO)[C@@H](O)[C@@H]1O)([C]#[N+]CCCCCC(=O)N[C@H]1C(O)O[C@H](CO)[C@@H](O)[C@@H]1O)([C]#[N+]CCCCCC(=O)N[C@H]1C(O)O[C@H](CO)[C@@H](O)[C@@H]1O)[C]#[N+]CCCCCC(=O)N[C@H]1C(O)O[C@H](CO)[C@@H](O)[C@@H]1O)N[C@H]1C(O)O[C@H](CO)[C@@H](O)[C@@H]1O` (stereo partly drawn) is reported as 0.42 %ID/g (U-87 MG tumour model; host not given, tumour; 2 h, tumour-bearing).
`CN(C)CCn1c2ccc([N+](=O)[O-])cc2c(=O)n1Cc1ccccc1` gave a selectivity index of 5 (Leishmania amazonensis; promastigotes, MHOM/BR/77/LTB0016; reference: CC50 macrophages over IC50 promastigotes).
For `CCN(CC)c1ccc2c(-c3ccc(S(=O)(=O)NCCNC(=O)CN4CCN(CC(=O)[O-])CCN(CC(=O)O)CCN(CC(=O)[O-])CC4)cc3S(=O)(=O)[O-])c3ccc(=[N+](CC)CC)cc-3oc2c1.[64Cu+2]`, the tracer uptake was 7.7 %ID/g (U-87 MG tumour model; host not given, liver; 4 h, tumour-bearing).

Some of these lines once more:
`CCCCn1c2ccc([N+](=O)[O-])cc2c(=O)n1Cc1ccccc1` gave a selectivity index of 9 (Leishmania amazonensis; promastigotes, MHOM/BR/77/LTB0016; reference: CC50 macrophages over IC50 promastigotes).
The tracer uptake of `O=C(CCCCC[N+]#[C][99Tc-5]([C]#[N+]CCCCCC(=O)N[C@H]1C(O)O[C@H](CO)[C@@H](O)[C@@H]1O)([C]#[N+]CCCCCC(=O)N[C@H]1C(O)O[C@H](CO)[C@@H](O)[C@@H]1O)([C]#[N+]CCCCCC(=O)N[C@H]1C(O)O[C@H](CO)[C@@H](O)[C@@H]1O)([C]#[N+]CCCCCC(=O)N[C@H]1C(O)O[C@H](CO)[C@@H](O)[C@@H]1O)[C]#[N+]CCCCCC(=O)N[C@H]1C(O)O[C@H](CO)[C@@H](O)[C@@H]1O)N[C@H]1C(O)O[C@H](CO)[C@@H](O)[C@@H]1O` (stereo partly drawn) is reported as 0.42 %ID/g (U-87 MG tumour model; host not given, tumour; 2 h, tumour-bearing).
